Assay results collected from several papers.
A part holds a random share of what one study measured.

Sample 1 — method: protein binding microarray; form: double-stranded DNA, one strand shown; matrix: in vitro; tested at: not given; relative to: not given; direction: higher = stronger binding
Target: Histone acetyltransferase KAT6A, both winged helices, GST fusion (KAT6A, Homo sapiens, UniProt Q92794, residues 1-181)
Setting: 8-mer, flanks averaged, mean of 2 arrays, mostly near background
Construct (chain): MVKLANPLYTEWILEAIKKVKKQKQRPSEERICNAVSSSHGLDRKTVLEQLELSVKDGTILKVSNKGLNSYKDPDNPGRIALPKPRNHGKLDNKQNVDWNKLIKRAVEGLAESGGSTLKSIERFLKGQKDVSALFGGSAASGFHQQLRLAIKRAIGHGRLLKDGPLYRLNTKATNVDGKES
`CTGCACTC` gave an E-score of -0.0943.
`CAATTAGG` has an E-score of -0.155.
With `ATTCTCCC` the E-score was -0.265.
`GCGTAAAC` has an E-score of 0.267.
For `ACTTCTTC`, the E-score was -0.237.
`CGTCATGC` has an E-score of 0.162.
With `ATTCCTGC` the E-score was 0.00211.

Sample 2 — method: RNAcompete; form: RNA; matrix: in vitro; tested at: 20 nM; setting: 7-mer, probes averaged, single round; relative to: mean of 7-mers; direction: higher = stronger binding
Target: PABPC1L2, full length, GST fusion (mouse, UniProt A0ABA7IW68)
Residues (chain): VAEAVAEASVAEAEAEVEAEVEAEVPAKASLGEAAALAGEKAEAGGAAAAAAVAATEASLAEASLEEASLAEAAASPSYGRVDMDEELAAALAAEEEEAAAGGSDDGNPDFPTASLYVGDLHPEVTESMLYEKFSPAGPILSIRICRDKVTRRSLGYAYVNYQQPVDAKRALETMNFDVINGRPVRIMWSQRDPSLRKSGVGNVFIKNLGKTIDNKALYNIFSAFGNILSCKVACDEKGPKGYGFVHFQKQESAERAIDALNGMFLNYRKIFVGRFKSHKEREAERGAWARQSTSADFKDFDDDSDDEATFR
With `GACGAAG` the 7-mer Z-score was 0.0569.
The 7-mer Z-score of `GGAUCCU` is reported as -0.0554.
The 7-mer Z-score of `GGAAGUG` is reported as 0.0497.
The 7-mer Z-score of `AACCGGC` is reported as -0.0391.
For `ACCUAUG`, the 7-mer Z-score was -0.117.
`CAGAUUC` gave a 7-mer Z-score of -0.273.
`GGGGCAC` gave a 7-mer Z-score of 0.591.
`UCAACGU` gave a 7-mer Z-score of -0.269.

Sample 3 — method: RNA Bind-n-Seq; form: RNA; matrix: in vitro; tested at: 365 nM; relative to: no-protein control; direction: higher = stronger binding
Target: RNA binding protein fox-1 homolog 2, RRM domain, GST-SBP tag (RBFOX2, Homo sapiens, UniProt O43251-10, residues 100-194)
Setting: natural RNA segment, single round, ends assumed
Residues (chain): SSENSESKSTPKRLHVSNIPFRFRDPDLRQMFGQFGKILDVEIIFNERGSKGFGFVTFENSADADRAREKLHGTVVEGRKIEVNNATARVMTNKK
`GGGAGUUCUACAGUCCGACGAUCCAACCUAAAAUAUAUUUUCCAAGCUAUAUAUAAUAAUGAAAAAUAAAAACAUUACAUUUAUUUAUCCAGAAAACUGUGAUUUUAGGAUUACCUAACAUUGCUGGUAAAUAUGGAAUUCUCGGGUGCCAA` — result for “RBNS enrichment (R)”: 0.512.
For `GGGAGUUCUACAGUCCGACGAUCAACUGAAUGAAAACCUGUCAUGCGGGAUUAUUUUUGAAAAGCCUCCAUUUGUAUACAUUUGCCCAAACAUAGCAACUAUUGUACAGUUUUUCAUUGUAUCAAAUACUUUUUGGAAUUCUCGGGUGCCAA`, “RBNS enrichment (R)” read 0.489.
For `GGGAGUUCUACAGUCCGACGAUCGGAGCCCGGGUGGUGCCCUGAGCCUCGAGCUGCUCUCUGUCACUGUCUUGAAUCAGACUCAGAAAUGGCUUCUUCCCAGCCCUGCCUACAAGUUUUUCUCUGGGGUCCUCUGGAAUUCUCGGGUGCCAA`, “RBNS enrichment (R)” read 0.435.
Under “RBNS enrichment (R)”, `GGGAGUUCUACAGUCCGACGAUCUCUGGACCACCCAGGGCCUCCACUGCCACCUUGGCUGGCAAGGGAGAAAUGUGUUGUGUUGUCUUAGCUUUAAAACAGUCACAGUUCUUGCUCUAUCAUAGAUGAACAAAUGGAAUUCUCGGGUGCCAA` is recorded as 0.286.
For `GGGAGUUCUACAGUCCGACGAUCAGUUAUCACUUUUGGGUGUCUGUAUCCUAAGAAGUUUCUGAAAAGAUCUAAAGCCUUUUUAUCCCAUAUCCCAAAUUCUUAUGAGCCACUCACAGCAGGCAGCAUAUGUUUGGAAUUCUCGGGUGCCAA`, “RBNS enrichment (R)” read 0.375.
`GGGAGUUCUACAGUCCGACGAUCGGAAGACGCCUUUCUCCUCCAACCCAACCUCAUCCUCCUUCUUCAGGGACUUGGGUGGGUACUUGGGUGAGGAUCCCUGAAGGCCUUCAACCCGAGAAAACAAACCCAGGUGGAAUUCUCGGGUGCCAA`: “RBNS enrichment (R)” 0.236.
For `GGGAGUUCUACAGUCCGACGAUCGUUUUAAAUUUAAUCUUAUUUUUAUAUAAAAUGAUUGCCAGACGUACUAUAUUAAGCUUGAAGAAGCAGAAGAUCCCUGUUAAUGUGUAUGGCCCAGGCCAAGAGCUGUCUGGAAUUCUCGGGUGCCAA`, “RBNS enrichment (R)” read 0.844.
Under “RBNS enrichment (R)”, `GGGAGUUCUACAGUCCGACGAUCAGCCAGAGUUCUGGGAGACAACGCUGGGUCUUAUUCUGGGACCAAAGUGAGAAUUCAAGCACAUUUCUUUCCUUUGCUAUGUAGGGAGGCUGCUGCCUUCCCAGAGCCUGUGGAAUUCUCGGGUGCCAA` is recorded as 0.609.

Other studies, line by line
The fold induction of `PhoQ, residues 284 288 289 292 302 303 TAVSDG` is reported as 1.04 (PhoP, residues 12 14 15 18 19 HLGGL (Escherichia coli, UniProt P23836); Sort-seq, measured: YFP reporter; E. coli; PhoQ-PhoP variant library, together with: 10 µM Mg2+; relative to: high Mg2+ state, higher = stronger signaling).

For quick reference, copied from above (sample 2):
The 7-mer Z-score of `GGAUCCU` is reported as -0.0554.
The 7-mer Z-score of `GGAAGUG` is reported as 0.0497.
